Measured values collected from several papers.
Protocols differ between the studies behind these lines. ± gives the spread as reported.
bglR: Beta-glucuronidase (bglR, Clostridium perfringens, UniProt Q8XP19)
Cacna1b with α2δ, β3 subunits: Voltage-dependent N-type calcium channel subunit alpha-1B, with α2δ, β3 subunits (Cacna1b, Rattus norvegicus, UniProt Q02294)

Protein sequences, listed by entry. Tags and fused reporters are not part of them. Lines headed by an entry give the natural chain unless they say otherwise; changes in a name come on top. Residues count along the entry.
UniProt Q02294, whole entry, looked up: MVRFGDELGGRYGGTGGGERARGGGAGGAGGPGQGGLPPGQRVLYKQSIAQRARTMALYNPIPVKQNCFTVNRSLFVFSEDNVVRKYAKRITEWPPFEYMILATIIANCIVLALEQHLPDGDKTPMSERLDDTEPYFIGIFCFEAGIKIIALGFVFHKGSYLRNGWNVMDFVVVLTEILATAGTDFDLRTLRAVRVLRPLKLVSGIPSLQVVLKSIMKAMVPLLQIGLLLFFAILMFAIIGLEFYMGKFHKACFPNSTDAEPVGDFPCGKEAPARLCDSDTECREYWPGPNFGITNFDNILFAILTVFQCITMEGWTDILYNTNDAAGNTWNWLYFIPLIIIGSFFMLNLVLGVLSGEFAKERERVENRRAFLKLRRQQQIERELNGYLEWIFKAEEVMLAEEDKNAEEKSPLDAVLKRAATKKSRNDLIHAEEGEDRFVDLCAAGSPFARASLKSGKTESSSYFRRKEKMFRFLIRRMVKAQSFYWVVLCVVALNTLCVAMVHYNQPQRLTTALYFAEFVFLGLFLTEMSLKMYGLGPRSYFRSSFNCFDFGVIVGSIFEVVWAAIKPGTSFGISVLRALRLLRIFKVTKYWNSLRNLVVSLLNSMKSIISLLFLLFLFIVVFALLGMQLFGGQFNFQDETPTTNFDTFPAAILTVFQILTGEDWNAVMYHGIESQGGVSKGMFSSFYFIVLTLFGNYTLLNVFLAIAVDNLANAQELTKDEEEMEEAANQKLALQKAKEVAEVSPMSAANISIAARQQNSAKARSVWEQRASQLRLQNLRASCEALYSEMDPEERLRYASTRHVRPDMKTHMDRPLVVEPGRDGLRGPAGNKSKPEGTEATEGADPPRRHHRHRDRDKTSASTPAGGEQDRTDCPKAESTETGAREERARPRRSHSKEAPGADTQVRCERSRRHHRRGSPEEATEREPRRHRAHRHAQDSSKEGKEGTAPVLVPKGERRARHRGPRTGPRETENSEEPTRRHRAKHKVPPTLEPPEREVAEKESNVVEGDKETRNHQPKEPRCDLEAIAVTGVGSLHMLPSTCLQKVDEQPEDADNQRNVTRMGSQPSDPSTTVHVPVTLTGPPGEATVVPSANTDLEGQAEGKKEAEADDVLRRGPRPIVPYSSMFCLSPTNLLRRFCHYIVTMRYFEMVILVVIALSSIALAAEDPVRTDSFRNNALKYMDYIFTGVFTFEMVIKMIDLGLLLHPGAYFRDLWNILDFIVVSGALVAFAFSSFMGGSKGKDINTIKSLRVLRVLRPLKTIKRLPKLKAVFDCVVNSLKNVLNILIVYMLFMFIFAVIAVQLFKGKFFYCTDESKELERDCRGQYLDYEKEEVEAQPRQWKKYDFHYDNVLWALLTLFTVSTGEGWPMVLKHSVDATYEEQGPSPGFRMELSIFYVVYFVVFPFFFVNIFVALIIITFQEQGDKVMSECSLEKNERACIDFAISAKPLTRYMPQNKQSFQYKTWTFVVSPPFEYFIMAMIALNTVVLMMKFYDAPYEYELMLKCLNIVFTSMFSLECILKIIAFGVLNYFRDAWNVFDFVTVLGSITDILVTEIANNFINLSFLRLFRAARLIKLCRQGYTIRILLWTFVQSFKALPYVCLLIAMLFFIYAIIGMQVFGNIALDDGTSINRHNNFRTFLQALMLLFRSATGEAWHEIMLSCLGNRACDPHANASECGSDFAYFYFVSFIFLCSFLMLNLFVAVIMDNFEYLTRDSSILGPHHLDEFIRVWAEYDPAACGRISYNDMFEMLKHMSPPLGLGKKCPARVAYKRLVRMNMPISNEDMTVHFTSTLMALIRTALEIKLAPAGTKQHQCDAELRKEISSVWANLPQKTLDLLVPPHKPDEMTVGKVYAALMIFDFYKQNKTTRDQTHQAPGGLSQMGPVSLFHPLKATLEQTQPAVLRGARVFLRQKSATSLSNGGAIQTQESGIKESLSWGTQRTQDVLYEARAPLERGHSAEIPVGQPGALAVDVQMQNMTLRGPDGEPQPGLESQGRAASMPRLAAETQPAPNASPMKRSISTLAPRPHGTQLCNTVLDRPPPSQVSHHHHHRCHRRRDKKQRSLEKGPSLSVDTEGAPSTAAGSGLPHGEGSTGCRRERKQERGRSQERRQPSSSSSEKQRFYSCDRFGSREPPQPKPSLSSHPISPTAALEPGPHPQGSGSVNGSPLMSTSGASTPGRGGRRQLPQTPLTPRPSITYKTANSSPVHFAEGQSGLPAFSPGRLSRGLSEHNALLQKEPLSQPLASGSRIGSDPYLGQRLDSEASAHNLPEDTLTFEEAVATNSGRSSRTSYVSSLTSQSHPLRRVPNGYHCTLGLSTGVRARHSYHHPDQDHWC
UniProt P37136, 32-614 limits assumed: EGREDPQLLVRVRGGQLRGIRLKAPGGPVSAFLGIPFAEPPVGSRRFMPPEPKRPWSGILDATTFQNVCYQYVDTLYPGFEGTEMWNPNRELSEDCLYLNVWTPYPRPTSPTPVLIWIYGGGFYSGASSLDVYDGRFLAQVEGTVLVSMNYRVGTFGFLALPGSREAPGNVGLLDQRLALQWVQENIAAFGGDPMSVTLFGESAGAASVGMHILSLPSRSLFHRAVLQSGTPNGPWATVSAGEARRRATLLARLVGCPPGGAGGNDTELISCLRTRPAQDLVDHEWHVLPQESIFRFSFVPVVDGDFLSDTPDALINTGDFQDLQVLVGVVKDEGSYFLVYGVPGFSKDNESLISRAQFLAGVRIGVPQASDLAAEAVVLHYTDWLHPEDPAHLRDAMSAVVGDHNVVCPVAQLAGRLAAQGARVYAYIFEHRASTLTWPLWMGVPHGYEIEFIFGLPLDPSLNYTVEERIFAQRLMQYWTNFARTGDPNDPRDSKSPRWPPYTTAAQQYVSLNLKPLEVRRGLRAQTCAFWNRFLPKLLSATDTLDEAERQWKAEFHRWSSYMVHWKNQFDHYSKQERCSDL
UniProt P97612, whole entry, looked up: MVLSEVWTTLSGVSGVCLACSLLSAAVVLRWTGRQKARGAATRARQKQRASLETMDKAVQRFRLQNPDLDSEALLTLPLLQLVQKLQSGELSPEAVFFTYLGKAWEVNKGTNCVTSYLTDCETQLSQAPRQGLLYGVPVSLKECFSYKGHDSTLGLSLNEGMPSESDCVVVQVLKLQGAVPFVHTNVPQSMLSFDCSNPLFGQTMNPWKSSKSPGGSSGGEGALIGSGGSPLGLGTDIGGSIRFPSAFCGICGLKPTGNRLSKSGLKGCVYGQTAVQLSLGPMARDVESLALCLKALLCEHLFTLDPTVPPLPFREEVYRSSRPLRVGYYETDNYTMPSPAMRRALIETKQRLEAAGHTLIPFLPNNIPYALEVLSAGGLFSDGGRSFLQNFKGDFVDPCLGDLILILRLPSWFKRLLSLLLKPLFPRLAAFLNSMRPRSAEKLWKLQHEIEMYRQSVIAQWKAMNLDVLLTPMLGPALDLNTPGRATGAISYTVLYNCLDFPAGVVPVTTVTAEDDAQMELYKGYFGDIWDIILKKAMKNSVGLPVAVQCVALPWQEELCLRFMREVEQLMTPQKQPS
UniProt Q9WTU3, whole entry: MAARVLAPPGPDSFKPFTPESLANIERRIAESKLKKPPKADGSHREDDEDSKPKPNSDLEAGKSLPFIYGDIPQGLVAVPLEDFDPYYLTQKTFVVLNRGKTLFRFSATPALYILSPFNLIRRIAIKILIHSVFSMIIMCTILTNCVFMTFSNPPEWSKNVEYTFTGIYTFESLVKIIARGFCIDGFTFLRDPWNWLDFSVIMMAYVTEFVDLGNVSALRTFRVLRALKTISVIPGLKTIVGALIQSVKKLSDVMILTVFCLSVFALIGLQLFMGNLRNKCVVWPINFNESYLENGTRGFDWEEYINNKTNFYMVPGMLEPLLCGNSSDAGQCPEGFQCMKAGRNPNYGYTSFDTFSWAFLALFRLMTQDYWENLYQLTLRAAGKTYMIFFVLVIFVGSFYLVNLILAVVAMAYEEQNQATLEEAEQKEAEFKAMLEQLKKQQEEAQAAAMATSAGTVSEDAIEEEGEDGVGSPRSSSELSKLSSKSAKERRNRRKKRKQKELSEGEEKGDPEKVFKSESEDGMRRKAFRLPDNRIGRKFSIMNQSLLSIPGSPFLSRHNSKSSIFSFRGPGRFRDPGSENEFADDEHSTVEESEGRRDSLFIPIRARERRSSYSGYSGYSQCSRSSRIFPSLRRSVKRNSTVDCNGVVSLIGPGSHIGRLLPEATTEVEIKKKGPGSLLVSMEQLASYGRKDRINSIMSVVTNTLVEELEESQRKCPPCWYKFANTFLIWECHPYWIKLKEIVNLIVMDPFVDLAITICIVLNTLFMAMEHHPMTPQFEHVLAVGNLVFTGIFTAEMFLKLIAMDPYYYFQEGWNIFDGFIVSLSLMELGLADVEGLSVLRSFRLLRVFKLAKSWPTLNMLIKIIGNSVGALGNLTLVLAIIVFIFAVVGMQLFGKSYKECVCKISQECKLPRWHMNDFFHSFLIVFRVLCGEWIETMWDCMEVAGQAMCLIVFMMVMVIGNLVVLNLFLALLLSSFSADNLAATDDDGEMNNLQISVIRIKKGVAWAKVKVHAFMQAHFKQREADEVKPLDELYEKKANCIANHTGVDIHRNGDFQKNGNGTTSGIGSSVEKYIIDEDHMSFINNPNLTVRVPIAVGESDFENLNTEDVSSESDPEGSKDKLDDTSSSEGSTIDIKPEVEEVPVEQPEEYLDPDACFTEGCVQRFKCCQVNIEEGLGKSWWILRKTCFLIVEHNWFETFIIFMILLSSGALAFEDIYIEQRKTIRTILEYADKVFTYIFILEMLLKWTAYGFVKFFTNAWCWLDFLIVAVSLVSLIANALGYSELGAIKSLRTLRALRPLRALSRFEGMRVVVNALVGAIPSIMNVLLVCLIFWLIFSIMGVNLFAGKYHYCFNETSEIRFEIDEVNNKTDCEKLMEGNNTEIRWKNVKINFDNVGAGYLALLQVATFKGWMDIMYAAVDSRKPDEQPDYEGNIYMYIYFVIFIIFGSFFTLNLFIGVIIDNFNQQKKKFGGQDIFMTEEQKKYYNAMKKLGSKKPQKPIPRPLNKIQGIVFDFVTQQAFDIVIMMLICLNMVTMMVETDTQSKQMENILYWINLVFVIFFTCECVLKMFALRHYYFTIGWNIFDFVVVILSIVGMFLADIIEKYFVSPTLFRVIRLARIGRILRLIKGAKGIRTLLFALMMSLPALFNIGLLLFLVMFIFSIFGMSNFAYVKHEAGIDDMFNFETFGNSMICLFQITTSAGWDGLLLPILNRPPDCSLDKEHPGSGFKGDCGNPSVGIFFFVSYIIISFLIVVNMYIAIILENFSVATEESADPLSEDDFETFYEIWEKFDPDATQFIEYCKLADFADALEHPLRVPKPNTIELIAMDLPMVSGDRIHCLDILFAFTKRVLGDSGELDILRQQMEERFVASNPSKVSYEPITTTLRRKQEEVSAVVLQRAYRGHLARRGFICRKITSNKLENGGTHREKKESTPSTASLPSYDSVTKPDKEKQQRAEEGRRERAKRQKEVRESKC

SMILES | target or system | assay | system | conditions | scale | measurement | value
c1cnc2sc3c(N4CCNCC4)ncnc3c2c1 | bglR | enzyme activity, inhibitor | – | – | – | IC50 | 44 ± 3 nM
C#CCOc1ccc(-c2cc(C(=O)NC/C=C/S(C)(=O)=O)n[nH]2)cc1 | Polyprotein P1234, nsP2 protease (Chikungunya virus, UniProt Q5XXP4) | FRET | – | – | – | IC50 | 100 ± 3 nM
CN(C)CCCCNC(=O)C[C@H](Cc1ccc(F)cc1)NC(=O)[C@@H](Cc1ccc(Cl)cc1Cl)NC(=O)[C@H](Cc1ccccc1C#N)NC(=O)C(F)(F)F | Replicase polyprotein 1ab, main protease (rep, Severe acute respiratory syndrome coronavirus 2, UniProt P0DTD1) | enzyme activity, inhibitor | – | – | – | IC50 | > 10000 nM
CC[C@H](C)[C@H](NC(=O)[C@H](C)NC(=O)[C@H](CCC(=O)O)NC(=O)[C@H](CCC(=O)O)NC(=O)[C@H](CC(C)C)NC(=O)[C@H](CCCCN)NC(=O)[C@H](CCCCN)NC(=O)[C@H](CCSC)NC(=O)[C@H](CCC(=O)O)NC(=O)[C@H](Cc1ccc(O)cc1)NC(=O)[C@H](CCC(=O)O)NC(=O)[C@H](CC(C)C)NC(=O)[C@H](CC(=O)O)NC(=O)[C@H](CC(C)C)NC(=O)[C@H](Cc1ccccc1)NC(=O)[C@@H](NC(=O)[C@@H](NC(=O)[C@H](CC(N)=O)NC(=O)[C@@H](NC(=O)[C@H](CCC(N)=O)NC(=O)[C@H](CC(=O)O)NC(=O)[C@H](CC(C)C)NC(=O)[C@H](CO)NC(=O)[C@H](CC(C)C)NC(=O)[C@H](CC(=O)O)NC(=O)[C@@H]1CCCN1C(=O)[C@H](C)N)[C@@H](C)CC)C(C)C)[C@@H](C)O)C(=O)N[C@@H](CCCCN)C(=O)N[C@@H](CCCCN)C(=O)N[C@@H](CC(C)C)C(=O)N[C@@H](CCC(=O)O)C(=O)N[C@@H](CCC(=O)O)C(=O)N[C@@H](CO)C(=O)N[C@@H](Cc1ccc(O)cc1)C(=O)N[C@H](C(=O)N[C@@H](CC(=O)O)C(=O)N[C@@H](CC(C)C)C(=O)N[C@@H](CCCCN)C(=O)N[C@@H](CCC(=O)O)C(=O)N[C@@H](CC(C)C)C(=O)O)[C@@H](C)CC | Spike glycoprotein, Beta variant (Severe acute respiratory syndrome coronavirus 2, UniProt P0DTC2) | cell-cell fusion, inhibitor, luciferase fusion | 293T donor, Huh-7 target | 16 h, 37 °C | – | IC50 | 20.6 nM
CN1CCN(C(c2ccccc2)c2ccccc2)CC1 | Replicase polyprotein 1ab, nsp14 (rep, Severe acute respiratory syndrome-related coronavirus, UniProt P0C6X7) | enzyme activity, inhibitor | – | – | – | IC50 | no inhibition
CC[C@H](C)[C@H](NC(=O)[C@H](C)NC(=O)[C@H](CCC(=O)O)NC(=O)[C@H](CCC(=O)O)NC(=O)[C@H](CC(C)C)NC(=O)[C@H](CCCCN)NC(=O)[C@H](CCCCN)NC(=O)[C@H](CCSC)NC(=O)[C@H](CCC(=O)O)NC(=O)[C@H](Cc1ccc(O)cc1)NC(=O)[C@H](CCC(=O)O)NC(=O)[C@H](CC(C)C)NC(=O)[C@H](CC(=O)O)NC(=O)[C@H](CC(C)C)NC(=O)[C@H](Cc1ccccc1)NC(=O)[C@@H](NC(=O)[C@@H](NC(=O)[C@H](CC(N)=O)NC(=O)[C@@H](NC(=O)[C@H](CCC(N)=O)NC(=O)[C@H](CC(=O)O)NC(=O)[C@H](CC(C)C)NC(=O)[C@@H](N)CO)[C@@H](C)CC)C(C)C)[C@@H](C)O)C(=O)N[C@@H](CCCCN)C(=O)N[C@@H](CCCCN)C(=O)N[C@@H](CC(C)C)C(=O)N[C@@H](CCC(=O)O)C(=O)N[C@@H](CCC(=O)O)C(=O)N[C@@H](CO)C(=O)N[C@@H](Cc1ccc(O)cc1)C(=O)N[C@H](C(=O)N[C@@H](CC(=O)O)C(=O)N[C@@H](CC(C)C)C(=O)N[C@@H](CCCCN)C(=O)N[C@@H](CCC(=O)O)C(=O)N[C@@H](CC(C)C)C(=O)O)[C@@H](C)CC | Spike glycoprotein (MERS-CoV, UniProt K9N5Q8) | cell-cell fusion, inhibitor, luciferase fusion | 293T donor, Huh-7 target | 16 h, 37 °C, dual mutations | – | IC50 | 2410 nM
Cc1ccc(S(=O)(=O)Nc2cccc(C(=O)NC3CCN(c4ncnc5[nH]cnc45)CC3)c2)cc1Cl | SARS-CoV-2 | – | Wuhan-Hu-1 | 0.01016 µM | baseline: untreated infected cells | relative infection | 88.6%
CNc1nc(N2CCNCC2)c2sc3nc(-c4ccccc4)ccc3c2n1 | bglR | enzyme activity, inhibitor | – | – | – | IC50 | 90 ± 40 nM
Brc1ccc(Cn2cnc3ccccc32)cc1 | Enoyl-[acyl-carrier-protein] reductase [NADH] (Francisella tularensis subsp. tularensis, UniProt Q5NGQ3) | – | – | – | – | IC50 | 27000 nM
CC[C@H](C)[C@H](NC(=O)[C@H](C)NC(=O)[C@H](CCC(=O)O)NC(=O)[C@H](CCC(=O)O)NC(=O)[C@H](CC(C)C)NC(=O)[C@H](CCCCN)NC(=O)[C@H](CCCCN)NC(=O)[C@H](CCSC)NC(=O)[C@H](CCC(=O)O)NC(=O)[C@H](Cc1ccc(O)cc1)NC(=O)[C@H](CCC(=O)O)NC(=O)[C@H](CC(C)C)NC(=O)[C@H](CC(=O)O)NC(=O)[C@H](CC(C)C)NC(=O)[C@H](Cc1ccccc1)NC(=O)[C@H](Cc1ccc(O)cc1)NC(=O)[C@@H](NC(=O)[C@H](CC(N)=O)NC(=O)[C@@H](NC(=O)[C@H](CCC(N)=O)NC(=O)[C@H](CC(=O)O)NC(=O)[C@H](CC(C)C)NC(=O)[C@@H](N)CO)[C@@H](C)CC)C(C)C)C(=O)N[C@@H](CCCCN)C(=O)N[C@@H](CCCCN)C(=O)N[C@@H](CC(C)C)C(=O)N[C@@H](CCC(=O)O)C(=O)N[C@@H](CCC(=O)O)C(=O)N[C@@H](CO)C(=O)N[C@@H](Cc1ccc(O)cc1)C(=O)N[C@H](C(=O)N[C@@H](CC(=O)O)C(=O)N[C@@H](CC(C)C)C(=O)N[C@@H](CCCCN)C(=O)N[C@@H](CCC(=O)O)C(=O)N[C@@H](CC(C)C)C(=O)O)[C@@H](C)CC | Spike glycoprotein (Severe acute respiratory syndrome coronavirus, UniProt P59594) | cell-cell fusion, inhibitor, luciferase fusion | 293T donor, Huh-7 target | 16 h, 37 °C | – | IC50 | 26.9 nM
C[C@@H]1NC(=O)CNC(=O)[C@H](CCCCN)NC(=O)[C@H](CCCNC(=N)N)NC(=O)[C@H](CCCCN)NC(=O)[C@@H](N)CSSC[C@@H]2NC(=O)[C@@H]3CSSC[C@@H](C(N)=O)NC(=O)[C@H](CCCCN)NC(=O)CNC(=O)[C@H](CC(N)=O)NC(=O)[C@H](CCCNC(=N)N)NC(=O)[C@H](CSSC[C@H](NC(=O)[C@H](CO)NC1=O)C(=O)N[C@@H](CCCNC(=N)N)C(=O)N[C@@H](CCCNC(=N)N)C(=O)N[C@@H]([C@@H](C)O)C(=O)N[C@@H](CO)C(=O)N[C@@H](Cc1ccc(O)cc1)C(=O)N[C@@H](CC(=O)O)C(=O)N3)NC(=O)[C@H](CO)NC(=O)CNC(=O)[C@H]([C@@H](C)O)NC2=O | Cacna1b with α2δ, β3 subunits | Ba2+ current, inhibitor, whole-cell patch clamp | HEK293 expressing α2δ and β3 | 22 °C, together with: Ba2+ 20 mM | – | IC50 | 68 nM
O=C(NCc1ccc(F)cc1)C1C(=O)N(O)C(=O)c2cc(C(F)(F)F)ccc21 (stereo not shown) | Nucleoprotein, exonuclease domain (N, Lymphocytic choriomeningitis virus, UniProt P09992) | exonuclease activity, inhibitor | – | – | – | IC50 | 24000 ± 900 nM
CCOP(=O)(OCC)ON1C(=O)c2cccc3cccc(c23)C1=O | Ache (Rattus norvegicus, UniProt P37136) | enzyme activity, inhibitor | rat, postnatal day 70, rat brain homogenate | 15 min, 37 °C | – | IC50 | 64 nM
CCCCC/C=C\C/C=C\C/C=C\C/C=C\CCCCP(=O)(F)OC (stereo not shown) | Faah (Rattus norvegicus, UniProt P97612) | – | – | together with: FP-biotin 1 µM | – | IC50 | 5.1 nM
CC(=O)N[C@@H](CCCCN)C(=O)N[C@@H](Cc1c[nH]c2ccccc12)C(=O)N[C@H]1CCCCNC(=O)C[C@@H](C(=O)N[C@@H](CCCNC(=N)N)C(N)=O)NC(=O)[C@H](Cc2c[nH]cn2)NC(=O)[C@H](CC(=O)O)NC(=O)[C@H](CCCNC(=N)N)NC1=O | Scn8a (Mus musculus, UniProt Q9WTU3) | ion current, inhibitor, Hill equation fit | – | mouse channel | – | IC50 | 54300 ± 9000 nM
CC[C@H](C)[C@H](NC(=O)[C@H](C)NC(=O)[C@H](CCC(=O)O)NC(=O)[C@H](CCC(=O)O)NC(=O)[C@H](CC(C)C)NC(=O)[C@H](CCCCN)NC(=O)[C@H](CCCCN)NC(=O)[C@H](CCSC)NC(=O)[C@H](CCC(=O)O)NC(=O)[C@H](Cc1ccc(O)cc1)NC(=O)[C@H](CCC(=O)O)NC(=O)[C@H](CC(C)C)NC(=O)[C@H](CC(=O)O)NC(=O)[C@H](CC(C)C)NC(=O)[C@H](Cc1ccccc1)NC(=O)[C@H](Cc1ccc(O)cc1)NC(=O)[C@@H](NC(=O)[C@H](CC(N)=O)NC(=O)[C@@H](NC(=O)[C@H](CCC(N)=O)NC(=O)[C@H](CC(=O)O)NC(=O)[C@H](CC(C)C)NC(=O)[C@@H](N)CO)[C@@H](C)CC)C(C)C)C(=O)N[C@@H](CCCCN)C(=O)N[C@@H](CCCCN)C(=O)N[C@@H](CC(C)C)C(=O)N[C@@H](CCC(=O)O)C(=O)N[C@@H](CCC(=O)O)C(=O)N[C@H](C(=O)N[C@@H](Cc1ccc(O)cc1)C(=O)N[C@H](C(=O)N[C@@H](CC(=O)O)C(=O)N[C@@H](CC(C)C)C(=O)N[C@@H](CCCCN)C(=O)N[C@@H](CCC(=O)O)C(=O)N[C@@H](CC(C)C)C(=O)O)[C@@H](C)CC)[C@@H](C)O | Spike glycoprotein (MERS-CoV, UniProt K9N5Q8) | cell-cell fusion, inhibitor, luciferase fusion | 293T donor, Huh-7 target | 16 h, 37 °C, dual mutations | – | IC50 | 5470 nM
NC(=O)COc1c(SSc2cnn(-c3ccccc3)c(=O)c2OCC(N)=O)cnn(-c2ccccc2)c1=O | Sortase A (Bacillus anthracis str. H9401, UniProt P0DPQ5) | inhibitor | Bacillus anthracis | – | – | IC50 | 94000 ± 23000 nM
C[C@@H]1NC(=O)[C@H]([C@@H](C)O)NC(=O)[C@H](CCCNC(=N)N)NC(=O)[C@H](CCCNC(=N)N)NC(=O)[C@@H]2CSSC[C@@H]3NC(=O)[C@H](CO)NC(=O)CNC(=O)[C@H]([C@@H](C)O)NC(=O)[C@H](CSSC[C@H](N)C(=O)N[C@@H](CCCCN)C(=O)N[C@@H](CCCNC(=N)N)C(=O)N[C@@H](CCCCN)C(=O)NCC(=O)N[C@@H](CO)C(=O)N[C@@H](CO)C(=O)N2)NC(=O)[C@H](CSSC[C@@H](C(N)=O)NC(=O)[C@H](CCCCN)NC(=O)CNC(=O)[C@H](CC(N)=O)NC(=O)[C@H](CCCNC(=N)N)NC3=O)NC(=O)[C@H](CC(=O)O)NC(=O)[C@H](Cc2ccc(O)cc2)NC1=O | Cacna1b with α2δ, β3 subunits | Ba2+ current, inhibitor, whole-cell patch clamp | HEK293 expressing α2δ and β3 | 22 °C, together with: Ba2+ 20 mM | – | IC50 | 107 nM
CC[C@H](C)[C@H](NC(=O)[C@H](C)NC(=O)[C@H](CCC(=O)O)NC(=O)[C@H](CCC(=O)O)NC(=O)[C@H](CC(C)C)NC(=O)[C@H](CCCCN)NC(=O)[C@H](CCCCN)NC(=O)[C@H](CCSC)NC(=O)[C@H](CCC(=O)O)NC(=O)[C@H](Cc1ccc(O)cc1)NC(=O)[C@H](CCC(=O)O)NC(=O)[C@H](CC(C)C)NC(=O)[C@H](CC(=O)O)NC(=O)[C@H](CC(C)C)NC(=O)[C@H](Cc1ccccc1)NC(=O)[C@H](Cc1ccccc1)NC(=O)[C@@H](NC(=O)[C@H](CC(N)=O)NC(=O)[C@@H](NC(=O)[C@H](CCC(N)=O)NC(=O)[C@H](CC(=O)O)NC(=O)[C@H](CC(C)C)NC(=O)[C@@H](N)CO)[C@@H](C)CC)C(C)C)C(=O)N[C@@H](CCCCN)C(=O)N[C@@H](CCCCN)C(=O)N[C@@H](CC(C)C)C(=O)N[C@@H](CCC(=O)O)C(=O)N[C@@H](CCC(=O)O)C(=O)N[C@@H](CO)C(=O)N[C@@H](Cc1ccc(O)cc1)C(=O)N[C@H](C(=O)N[C@@H](CC(=O)O)C(=O)N[C@@H](CC(C)C)C(=O)N[C@@H](CCCCN)C(=O)N[C@@H](CCC(=O)O)C(=O)N[C@@H](CC(C)C)C(=O)O)[C@@H](C)CC | Spike glycoprotein (MERS-CoV, UniProt K9N5Q8) | cell-cell fusion, inhibitor, luciferase fusion | 293T donor, Huh-7 target | 16 h, 37 °C | – | IC50 | 927 nM
